# Assay results from different studies.
# Each numbered part is a random draw from the data of one study; scales do not carry over between parts.

# Set 1 — target: UBE2G1 UBC core domain (UniProt P62253); method: yeast two-hybrid; matrix: yeast; notes: mostly zero background; baseline: not given; reading: higher = stronger interaction
# B1: MSL2 RING domain (UniProt Q9HCI7); chain LLPYFRQSLSCCVCGHLLQDPIAPTNSTCQHYVCKTCKGKKMMMKPSCSWCKDYEQFEENKQ
# B2: RNF4 RING domain (UniProt P78317); chain TGLRPSGTVSCPICMDGYSEIVQNGRLIVSTECGHVFCSQCLRDSLKNANTCPTCRKKINHKRYHP
# B3: RNF32 RING domain (UniProt Q9H0A6); chain SLLQGDSVQPCPICKEEFELRPQVLLSCSHVFHKACLQAFEKFTNKKTCPLCRKNQYQTRVIH
# B4: RNF14 RING domain (UniProt Q9UBS8); chain IKCFNSKLFLCSICFCEKLGSECMYFLECRHVYCKACLKDYFEIQIRDGQVQCLNCPEPKCPSVATPGQVK
# B5: RNF5 RING domain (UniProt Q99942); chain ERGGAGATFECNICLETAREAVVSVCGHLYCWPCLHQWLETRPERQECPVCKAGISREKVVP
# Construct (chain): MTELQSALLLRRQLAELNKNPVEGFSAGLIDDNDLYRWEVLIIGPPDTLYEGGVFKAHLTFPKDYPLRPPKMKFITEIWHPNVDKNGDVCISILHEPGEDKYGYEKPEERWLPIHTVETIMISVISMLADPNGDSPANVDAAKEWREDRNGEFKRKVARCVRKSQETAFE
Sequence,lacZ reporter activity
B1 (MSL2 RING domain),0
SYEDKSNDFVCPICFDMIEEAYMTKCGHSFCYKCIHQSLEDNNRCPKCNYVVDNIDHLY (COP1 RING domain (UniProt Q8NHY2)),0
B2 (RNF4 RING domain),0
QLQDEEDDSLCRICMDAVIDCVLLECGHMVTCTKCGKRMSECPICRQYVVRAVHVF (RNF34 RING domain (UniProt Q969K3)),0
B3 (RNF32 RING domain),0
KIKDLNEHIVCCLCAGYFVDATTITECLHTFCKSCIVKYLQTSKYCPMCNIKIHETQPLL (PCGF1 RING domain (UniProt Q9BSM1)),0
B4 (RNF14 RING domain),0
LKQVSIRENCCSLCCDEVADTQLKPCGHSDLCMDCALQLETCPLCRKEIVSRIRQI (RSPRY1 RING domain (UniProt Q96DX4)),0
B5 (RNF5 RING domain),0

# Set 2 — method: RNA Bind-n-Seq; form: RNA; matrix: in vitro; concentration: 365 nM; baseline: no-protein control; reading: higher = stronger binding
# Target: RNA binding protein fox-1 homolog 2, RRM domain, GST-SBP tag (RBFOX2, Homo sapiens, UniProt O43251-10, residues 100-194)
# Notes: natural RNA segment, single round, ends assumed
# Construct (chain): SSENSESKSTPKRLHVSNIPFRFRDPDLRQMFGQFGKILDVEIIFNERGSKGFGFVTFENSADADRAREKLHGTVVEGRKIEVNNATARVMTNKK
Oligonucleotide,RBNS enrichment (R)
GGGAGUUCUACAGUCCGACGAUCAGACGAAAGGGAGGGCCAAGGGCACCCCAGUUAACUGCCAGGACUGGCAGAGAGGUCCUGUGAGUCAUUUGAUGGACGAGUGCCUUUGACUGUGCUAGAUCUUCACUUCGUGGAAUUCUCGGGUGCCAA,1.16
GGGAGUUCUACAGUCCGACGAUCCAGCAGAGCUCAAGAUUGUAGAAACUCAGCAGAAGCUGGUAAAAACAUGGGGAGCCCGGAGGACAGGCUGCUGUCCAGGGCAGAGGCCAUGAAGAAGUGCUUCCGUGGCCUGGAAUUCUCGGGUGCCAA,0.419
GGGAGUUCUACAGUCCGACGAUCAAUGUUUUUGAUUUAUUUGUGUCUUAUAGCUCUAGCUGCUAAUAAAGAUCCCAUGUCCUGCUUUCUCAGUGUUGGUCAAAUGAGUGAAUUUGGAUUUUAGUGGACAAUAGUGGAAUUCUCGGGUGCCAA,0.342
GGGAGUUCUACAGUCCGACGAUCGCGCUGAGGGUGGGUUGGGCAACAGCCUGAGAGUGGACUCAGUGUUGAUUCUCUAUCGUGAUGCGAAAUUGAUGCCUGCUGCUCUACAGAAAAUGCCAACUUGGUUUUUUUGGAAUUCUCGGGUGCCAA,0.638
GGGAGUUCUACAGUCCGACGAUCCUUCGAUUCCUGGUUAUUUGGACCAUUGACUCAUCAUGGACUAUAUAAUGUAAUAAGAUUCUUUUCUCUUAAGGUAUCCUUGAAUUACACCAAAGAACCAGAAACUUAAUUGGAAUUCUCGGGUGCCAA,0.553
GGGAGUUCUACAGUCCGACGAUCUGUAUUAUGACUGCUGGUGGUAAGAGGAAUAUCUUUAAAUUUCUUAUGAAAACAAAUCCACAUUCAUUAUUUCACAUUUGUCUAAGAGGUUAAGUAUCUGAAGGGAGGGUUGGAAUUCUCGGGUGCCAA,0.367
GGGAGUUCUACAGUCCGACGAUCCAUAGGGAGGGCUCUGCAUAGCACCUGCUAUAGCGGUGUCAUGUUGGAUCGCUUUUGUGACUGUUCAUCUGUCCUUGACAGUGGCUGUCAUCUUGACUACUUUGUUGAUUUGGAAUUCUCGGGUGCCAA,0.309
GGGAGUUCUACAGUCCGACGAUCACACAAUGGUAAGUAUUUGUGUAUCUAAACAUAGCUAAACAUAGAAAAGGUAUGGUAAAAAUACAAUUUUAUAAUCUUAUGGGACUACCAUCAAUAUGUAGACCGUCAUUUGGAAUUCUCGGGUGCCAA,0.424

# Set 3 — method: EMSA with sequencing; form: double-stranded DNA, one strand shown; matrix: in vitro; concentration: 10 and 20 nM; baseline: negative control set to 0; reading: higher = stronger binding
# Target: Hepatocyte nuclear factor 3-alpha (Foxa1, Mus musculus, UniProt P35582, residues 1-468, full length assumed)
# Notes: whole designed probe, mean of two concentrations, ends assumed
# Residues (chain): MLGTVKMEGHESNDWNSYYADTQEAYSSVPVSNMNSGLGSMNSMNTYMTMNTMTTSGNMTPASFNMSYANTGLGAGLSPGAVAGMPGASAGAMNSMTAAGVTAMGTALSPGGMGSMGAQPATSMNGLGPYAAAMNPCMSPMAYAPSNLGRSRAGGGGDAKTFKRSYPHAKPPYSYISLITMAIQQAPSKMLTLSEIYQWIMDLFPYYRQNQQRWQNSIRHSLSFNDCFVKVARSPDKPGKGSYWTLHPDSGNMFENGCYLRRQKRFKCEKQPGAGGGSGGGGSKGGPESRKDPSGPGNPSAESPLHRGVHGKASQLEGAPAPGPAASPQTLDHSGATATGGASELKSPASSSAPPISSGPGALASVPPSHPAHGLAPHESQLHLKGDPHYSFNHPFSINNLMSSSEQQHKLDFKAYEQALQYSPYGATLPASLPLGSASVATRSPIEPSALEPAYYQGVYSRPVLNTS
Oligonucleotide,normalised bound fraction [ratio]
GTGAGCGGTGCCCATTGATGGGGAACATCTTCCCCCTCTTCCTTGCCCCACCAGCTCACCTTCCCGGGTTATTTGCAGATAGGAAAATAAATAAAGCCGGCATTCGTTAACGCAGTTCTGGCGCAAACTGCTGTTTGCTCTGCATGAATCATGGTCCTTACGCGACGCCAGGCTCCGGGAGAGCAAAGCACCGTGTCAGGCGCATGATCCGGGCTCGCCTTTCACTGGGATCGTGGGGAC,0.354
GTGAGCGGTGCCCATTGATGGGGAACTACCAACCAAAGATTTTGAAAAGAGAGTCGGTCCTTGATGATTCAATTTCAAGGCCAAACCATCACAGGGACCACTTTGGAAGTAATATTAAGTAAACAAGCATCCTTTTAGTTAATGCTAATGGTTAGCTTGGTTTTCTGTTATGTATAGTCAAAAGGATTCTACATGATTAAGCCAGAAGTATCTATTTAGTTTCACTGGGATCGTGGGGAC,0.457
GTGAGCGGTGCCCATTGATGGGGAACTGGCCTTCTGGCCCTATCTGCTCCGTGCCCAACCCAGCGCCCCGCACAGTCGGAGCTTTGTAAATACGAGGTGACTGTCTGCCTACAAACTTTGTAAACATCACTTGAAATGGCCGCAGGGTATTGTGACATGGCCATACCACTATTTGTTTGCTATTGAATTTGTACTTCCCTGCCTTACTTTTGCTATTGCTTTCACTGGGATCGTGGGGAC,0.387
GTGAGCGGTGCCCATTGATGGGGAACGGGTTCTTCTGAAGGCACATTGCACCTTCTAGAAGGGTATGACTCAGAAGGAAAGAGAGAAAAACCTCTACTGGCAAGAGGAAATGGCTGCAGAGATTACTTTATCTGAAAATGGCACACGCTTTTATTAAGACATAAATGCCAGTGATGGATTCTGCTCTTGGCGTGTGGCTGTGCTCCCCAGCCCTGAGGTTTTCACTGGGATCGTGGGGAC,-0.0761
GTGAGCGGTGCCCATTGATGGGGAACATGAAAAAGGATAGGAAGAAAGGGAGGAAGAGGAGGGGGACAGAGAGGAAGTAGGAAGGGAGAGCGATAAAGGAAGGAAAGAAGATAAATTCTGTAATCTGCCCCACCCAGACTGGCATAGCACAACCTGGAATGGACTATTTAAGTCCCAAACATGATGTTAAGAGAATAATTCAGATTTCTAGGAATGCACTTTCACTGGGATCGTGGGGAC,-0.067

# Set 4 — method: universal PBM; form: double-stranded DNA, one strand shown; matrix: in vitro; concentration: 600 nM; reading: higher = stronger binding
# Target: Sal-like protein 4, full length isoform A (SALL4, Homo sapiens, UniProt Q9UJQ4, residues 1-1053)
# UniProt Q9UJQ4, sequence (whole entry, looked up): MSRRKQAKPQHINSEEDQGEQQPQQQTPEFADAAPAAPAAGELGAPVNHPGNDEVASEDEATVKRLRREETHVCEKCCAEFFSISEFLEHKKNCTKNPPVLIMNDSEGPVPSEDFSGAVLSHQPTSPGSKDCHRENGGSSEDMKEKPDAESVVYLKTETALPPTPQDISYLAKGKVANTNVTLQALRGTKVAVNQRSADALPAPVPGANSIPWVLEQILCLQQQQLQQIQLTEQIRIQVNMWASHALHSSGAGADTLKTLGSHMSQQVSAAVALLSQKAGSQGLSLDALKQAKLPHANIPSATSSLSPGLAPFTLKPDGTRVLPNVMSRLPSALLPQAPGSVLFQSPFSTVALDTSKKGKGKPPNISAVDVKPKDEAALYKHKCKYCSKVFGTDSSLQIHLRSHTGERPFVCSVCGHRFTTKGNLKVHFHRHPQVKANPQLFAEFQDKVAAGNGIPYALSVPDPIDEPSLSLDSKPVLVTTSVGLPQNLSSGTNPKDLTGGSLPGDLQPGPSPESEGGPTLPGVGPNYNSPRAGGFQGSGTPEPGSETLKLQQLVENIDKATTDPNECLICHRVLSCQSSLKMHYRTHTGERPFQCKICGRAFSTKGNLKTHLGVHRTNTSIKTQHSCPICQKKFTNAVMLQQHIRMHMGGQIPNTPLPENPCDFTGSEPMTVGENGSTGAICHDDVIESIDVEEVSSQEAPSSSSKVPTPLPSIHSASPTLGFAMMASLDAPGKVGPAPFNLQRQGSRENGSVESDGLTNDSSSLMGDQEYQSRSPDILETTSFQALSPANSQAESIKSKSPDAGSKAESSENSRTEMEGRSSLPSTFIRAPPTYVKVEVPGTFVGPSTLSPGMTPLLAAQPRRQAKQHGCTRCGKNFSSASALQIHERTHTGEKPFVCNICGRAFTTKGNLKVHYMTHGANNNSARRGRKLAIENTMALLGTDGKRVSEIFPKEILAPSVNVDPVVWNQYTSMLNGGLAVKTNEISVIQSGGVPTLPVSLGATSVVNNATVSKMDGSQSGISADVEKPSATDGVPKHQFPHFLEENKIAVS
# Notes: 8-mer, flanks averaged, mean of replicates
Oligonucleotide,E-score
AGCATTGC,-0.0262
TGGATTAA,0.249
AAGTCAGC,-0.0492
AGTCATCG,0.0812
CCCGTCAC,-0.311
AGCTCCGC,-0.27
AGAAGTTG,-0.0391
ATGGCTTC,0.0898
AGAAACCC,-0.0317
CGGCATCC,-0.111
ACCTGTGG,-0.203
TCTTCAAA,0.266
CGTCTAGA,-0.0644
CCTAATCA,0.21
AATGTGTG,0.132
AGAGCGAT,-0.164
AGTAGAAT,0.226
AGGTCCTC,-0.164
AAGAGCGG,-0.157
AACCTTCG,0.0286
